Measurements gathered from unrelated publications.
Compare with care: the assays were run in different laboratories. Numbers after ± are the reported error.

Structure (SMILES)	assay	test system	conditions	tissue uptake
C[C@H](O)[C@@H](NC(=O)[C@H]1CCCN1C(=O)[C@@H](CCCCN)NC(=O)[C@@H](CO)NC(=O)[C@@H](Cc1ccc(O)cc1)NC(=O)[C@@H](CC(N)=O)NC(=O)CCOCCOCCOCCNC(=O)CN1CCN(CC(=O)O)CCN(CC(=O)O)CCN(CC(=O)O)CC1)C(=O)N[C@H](CC(=O)O)C(=O)N[C@H](CCCNC(=N)N)C(=O)N[C@H](CCC(N)=O)C(=O)N[C@H](Cc1ccc(O)cc1)C(=O)N[C@H](Cc1c[nH]cn1)C(=O)N[C@H](Cc1ccccc1)C(N)=O [gallium-68 labelled]		BALB/c nude mice U-87 MG tumour, muscle	intravenous, 1.85 MBq, 0.5 h, radiolabelled	0.71 ± 0.37 %ID/g
CCCC[C@H]1C(=O)N(C)[C@@H](CCCC)C(=O)N[C@@H](CCCNC(=O)CN2CCN(CC(=O)O)CCN(CC(=O)O)CCN(CC(=O)O)CC2)C(=O)N[C@H](C(=O)NCC(N)=O)CSCC(=O)N[C@@H](Cc2ccc(O)cc2)C(=O)N(C)[C@@H](C)C(=O)N[C@@H](CC(N)=O)C(=O)N2CCC[C@H]2C(=O)N[C@@H](Cc2c[nH]cn2)C(=O)N[C@@H](CC(C)C)C(=O)N(C)CC(=O)N[C@@H](Cc2c[nH]c3ccccc23)C(=O)N[C@@H](CO)C(=O)N[C@@H](Cc2c[nH]c3ccccc23)C(=O)N1C [gallium-68 labelled]		NOD/SCID mice with CHO-hPD-L1 xenograft, kidney	120 min post injection	42.1 ± 13.9 %ID/g
[2H]C([2H])([18F])[C@]([2H])(N)C(=O)O	PET	athymic nude mice, U-87 MG, tumor	dose not given, 15 min post-injection	2.85 ± 0.39 %ID/cc
CC[C@H](C)[C@H](NC(=O)[C@H](CCCNC(=N)N)NC(=O)[C@H](CCCCN)NC(=O)[C@H](Cc1ccc(O)cc1)NC(=O)[C@H](CC(=O)O)NC(=O)[C@H](C)NC(=O)CNC(=O)CCOCCOCCOCCNC(=O)CN1CCN(CC(=O)O)CCN(CC(=O)O)CCN(CC(=O)O)CC1)C(=O)N[C@H](C(=O)N[C@@H](CC(C)C)C(=O)N[C@@H](CCCCN)C(=O)N[C@H](C(=O)N[C@@H](CC(N)=O)C(N)=O)C(C)C)[C@@H](C)O [copper-64 labelled]	ex vivo gamma counting	C57BL/6J male mice, B16-F10 tumour, testis	intravenous, 1.85 MBq, 20 min	1.09 ± 0.454 %ID/g
CC[C@H](C)[C@H](NC(=O)[C@@H](Cc1c[nH]c2ccccc12)NC(=O)[C@@H]1CCCN1C(=O)[C@H](CCCCN)NC(=O)[C@H](CCCCN)NC(=O)CCNC(=O)CCNC(=O)CN1CCN(CC(=O)O)CCN(CC(=O)O)CCN(CC(=O)O)CC1)C(=O)N[C@@H](C[Si](C)(C)C)C(=O)O [gallium-68 labelled]	ex vivo biodistribution	nude mice, HT-29 xenograft, muscle	90 min, with: levocabastine 0.5 µmol	0.44 ± 0.42 %ID/g
CSCC[C@H](NC(=O)CNC(=O)[C@H](CCCCN)NC(=O)[C@H](CC(C)C)NC(=O)[C@@H]1CCCN1C(=O)[C@H](CO)NC(=O)[C@H](Cc1c[nH]cn1)NC(=O)[C@H](Cc1c[nH]c2ccccc12)NC(=O)[C@H](CCCNC(=N)N)NC(=O)[C@H](CC(C)C)NC(=O)[C@H](CCCNC(=N)N)NC(=O)[C@H](Cc1c[nH]c2ccccc12)NC(=O)[C@H](CS)NC(=O)CCCCCNC(=O)CN1CCN(CC(=O)O)CCN(CC(=O)O)CCN(CC(=O)O)CC1)C(=O)O [copper-64 labelled]	ex vivo biodistribution	BALB/c nude mice, ovaries	intravenous, dose not given, 1 h, Huh-7 tumour-bearing	1.58 %ID/g
CC(C)C[C@@H](NC(=O)[C@@H](CCCNC(=N)N)NC(=O)[C@@H](Cc1c[nH]cn1)NC(=O)[C@@H](Cc1c[nH]c2ccccc12)NC(=O)[C@@H](Cc1c[nH]cn1)NC(=O)[C@@H](Cc1ccccc1)NC(=O)[C@H](NC(=O)[C@@H](Cc1ccc(O)cc1)NC(=O)CNC(=O)CNC(=O)CCOCCOCCOCCNC(=O)CN1CCN(CC(=O)O)CCN(CC(=O)O)CC1)[C@H](C)O)C(=O)N[C@H](CC(N)=O)C(=O)N1CCC[C@@H]1C(=O)O [gallium-68 labelled]	gamma counting	C57BL/6 mice, male, brain	intravenous, 1.85 MBq, 60 min	0.42 ± 0.05 %ID/g
CC[C@H](C)[C@H](NC(=O)[C@H](CCCCN)NC(=O)CNC(=O)[C@H](CC(C)C)NC(=O)[C@H](Cc1ccccc1)NC(=O)[C@H](CCCCN)NC(=O)[C@H](CO)NC(=O)[C@H](Cc1ccccc1)NC(=O)[C@H](Cc1c[nH]c2ccccc12)NC(=O)[C@H](CCC(N)=O)NC(=O)[C@@H](NC(=O)[C@H](Cc1ccccc1)NC(=O)CCCCCNC(=O)CN1CCN(CC(=O)O)CCN(CC(=O)O)CCN(CC(=O)O)CC1)C(C)C)C(=O)N[C@@H](CCC(=O)O)C(=O)N1CCC[C@H]1C(=O)N[C@@H](CC(=O)O)C(=O)N[C@H](C(=O)N[C@@H](CO)C(=O)N[C@@H](CCC(N)=O)C(=O)N[C@H](C(=O)N[C@@H](CCC(N)=O)C(=O)N[C@@H](CC(=O)O)C(=O)N1CCC[C@H]1C(=O)N[C@@H](CC(N)=O)C(=O)N[C@@H](CC(=O)O)C(=O)N[C@@H](CCC(N)=O)C(=O)N[C@@H](Cc1ccc(O)cc1)C(=O)N[C@@H](CCC(=O)O)C(=O)N1CCC[C@H]1C(=O)N[C@@H](Cc1ccccc1)C(=O)O)C(C)C)C(C)C [copper-64 labelled]		C57BL/6 mice, male, tumour-free, liver	0.5 h	16.9 ± 1.1 %ID/g
